{"data": "Measurements from different studies", "note": "Protocols differ between the studies behind these lines. ± gives the spread as reported."}
{"SMILES": "C[C@]12C=CC(=O)C=C1CC[C@@H]1[C@@H]2[C@@H](O)C[C@@]2(C)[C@H]1C[C@H]1O[C@@H](C3CCCCC3)O[C@]12C(=O)CO", "test system": "children with asthma, serum", "conditions": "inhaled, 80 µg ciclesonide, day 7, HFA-MDI with spacer, steady state", "quantity": "AUC(0-last)", "value": "0.261 ± 0.019 ng·h/mL"}
{"SMILES": "C[C@@H](O)[C@H]1C(=O)N2C(C(=O)O)=C(S[C@@H]3CN[C@H](C(=O)N(C)C)C3)[C@H](C)[C@H]12", "test": "microdialysis", "test system": "Danish Landrace pigs, cancellous bone", "conditions": "intravenous, 1000 mg, 10 min infusion, together with: vancomycin", "quantity": "AUC(0-last)", "value": "19300 ng·h/mL"}
{"SMILES": "NC(=O)N1c2ccccc2C=Cc2ccccc21", "test": "cytochrome c release, ELISA", "test system": "BALB/cByJ female mouse liver mitochondria", "conditions": "30 min", "how to read": "baseline: alamethicin maximal release", "quantity": "EC20", "value": "> 400 µM"}
{"SMILES": "CCOc1ccc(Cc2cc([C@@H]3S[C@H](CO)[C@@H](O)[C@H](O)[C@H]3O)c(OC)cc2C)cc1", "test system": "Japanese type 2 diabetes patients, plasma", "conditions": "oral, 5 mg single dose, eGFR ≥90 mL/min/1.73 m^2", "quantity": "AUC(0-last)", "value": "1990 ± 499 ng·h/mL"}
{"SMILES": "CCOCCn1c(C2CCN(CCc3ccc(C(C)(C)C(=O)O)cc3)CC2)nc2ccccc21", "test system": "human, mild renal insufficiency, plasma", "conditions": "oral, 20 mg", "quantity": "AUC(0-last)", "value": "937 ng·h/mL"}
{"SMILES": "CCCC[C@H](NC(C)=O)C(=O)N[C@H]1CCC(=O)NC[C@@H](C(=O)N[C@@H](Cc2c[nH]c3ccccc23)C(N)=O)NC(=O)[C@H](CCCNC(=N)N)NC(=O)[C@@H](Cc2ccccc2)NC(=O)[C@H](Cc2c[nH]cn2)NC1=O", "test system": "beagle dog, female, plasma", "conditions": "subcutaneous, 40.0 mg/kg daily, day 28", "quantity": "AUC(0-last)", "value": "6620 ng·h/mL"}
{"SMILES": "Cn1c(-c2ccc(C(N)=O)cc2F)nnc1C(C)(C)Oc1c(F)cc(Cl)cc1F", "test system": "young Japanese subjects, plasma", "conditions": "oral, 10 mg single dose, day 1", "quantity": "AUC(0-inf) range", "value": "652 to 1980 ng·h/mL"}
{"SMILES": "NC(=O)c1cnc2[nH]ccc2c1N[C@@H]1[C@@H]2CC3C[C@H]1C[C@@](O)(C3)C2", "test system": "Japanese, normal hepatic function, plasma", "conditions": "oral, 150 mg single dose, mean", "quantity": "AUC(0-last)", "value": "1300 ng·h/mL"}
{"SMILES": "CS(=O)(=O)n1cc2c(n1)CN([C@H]1CO[C@H](c3cc(F)ccc3F)[C@@H](N)C1)C2", "test system": "healthy male human, plasma", "conditions": "oral, 25 mg, fasted single dose", "quantity": "AUC(0-last)", "value": "22.4 µM·h"}
{"SMILES": "CN[C@H](CC(C)C)C(=O)N[C@H]1C(=O)N[C@@H](CC(N)=O)C(=O)N[C@H]2C(=O)N[C@H]3C(=O)N[C@H](C(=O)N[C@H](C(=O)O)c4cc(O)cc(O)c4-c4cc3ccc4O)[C@H](O)c3ccc(c(Cl)c3)Oc3cc2cc(c3O[C@@H]2O[C@H](CO)[C@@H](O)[C@H](O)[C@H]2O[C@H]2C[C@](C)(N)[C@H](O)[C@H](C)O2)Oc2ccc(cc2Cl)[C@H]1O", "test": "enzyme immunoassay", "test system": "Danish Landrace pigs, plasma, free", "conditions": "intravenous, 1000 mg, 100 min infusion, together with: meropenem", "quantity": "AUC(0-last)", "value": "121000 ng·h/mL"}
{"SMILES": "COc1cccc(N2CCN(C3=Nc4c(F)cccc4[C@H](CC(=O)O)N3c3cc(C(F)(F)F)ccc3OC)CC2)c1", "test": "UHPLC-MS/MS", "test system": "healthy women, plasma", "conditions": "intravenous infusion, 720 mg single dose, 60 min infusion, HPβCD formulation", "quantity": "AUC(0-last)", "value": "167000 ± 23300 ng·h/mL"}
{"SMILES": "CN[C@@H]1[C@H](O)[C@H](NC)[C@H]2O[C@@]3(O)C(=O)C[C@@H](C)O[C@H]3O[C@@H]2[C@H]1O", "test": "mitochondrial swelling", "test system": "BALB/cByJ female mouse liver mitochondria", "conditions": "30 min, together with: succinate + rotenone", "how to read": "baseline: CaCl2 maximal swelling", "quantity": "EC20", "value": "> 400 µM"}
{"note": "A few entries again:"}
{"SMILES": "CCCC[C@H](NC(C)=O)C(=O)N[C@H]1CCC(=O)NC[C@@H](C(=O)N[C@@H](Cc2c[nH]c3ccccc23)C(N)=O)NC(=O)[C@H](CCCNC(=N)N)NC(=O)[C@@H](Cc2ccccc2)NC(=O)[C@H](Cc2c[nH]cn2)NC1=O", "test system": "beagle dog, female, plasma", "conditions": "subcutaneous, 40.0 mg/kg daily, day 28", "quantity": "AUC(0-last)", "value": "6620 ng·h/mL"}
